Earlier results that unrelated publications cite.
Each line is one published result; not all experiments were run side by side. “And” joins repeats or separate records; there may be more than shown. ± gives the spread as reported. In brackets after ≈: the same amount, converted by molar mass.

Substance	assay	test system	conditions	scale	endpoint	result
OCCOCCN1CCN(C(c2ccccc2)c2ccc(Cl)cc2)CC1 (stereo not shown)	–	rat	together with: cyclosporin A	–	log brain permeability-surface product	-1.41 mL/g/s
CCN(CC)CCNC(=O)c1c(C)[nH]c(/C=C2\C(=O)Nc3ccc(F)cc32)c1C	–	patients	50 mg daily, 24 h post-dose day 3, maximum time-matched	–	placebo-adjusted QTcF prolongation	9.6 ms
COc1cccc(-c2c(C)n(Cc3c(F)cccc3C(F)(F)F)c(=O)n(C[C@H](NCCCC(=O)O)c3ccccc3)c2=O)c1F	–	human	150 mg single dose, rifampin day 1, mean observed, together with: rifampin 600 mg once daily	reference: with over without rifampin	AUC(0-24) ratio	5.58
O=c1n(CCCN2CCN(c3cccc(Cl)c3)CC2)nc2ccccn12	–	healthy humans	oral, 50 mg (HCl salt), together with: ritonavir 200 mg, 4 doses	–	apparent oral clearance	75 ± 12 mL/min
Cc1ccc(Nc2nccc(N(C)c3ccc4c(C)n(C)nc4c3)n2)cc1S(N)(=O)=O	–	patients	dose not given, grade 3	–	patients with thrombocytopenia	1%
O=C(/C=C/C=C/c1ccc2c(c1)OCO2)N1CCCCC1	carbamazepine elimination rate, refers to: carbamazepine	human	20 mg, together with: carbamazepine 500 mg	–	inhibition	no inhibition
NC(=O)c1cnccn1	–	plasma	concentration not given	–	Cmax	325 µM
O=C1CC(c2ccc(O)cc2)Oc2cc(O)cc(O)c21 (stereo not shown)	–	rat	oral, in meal, 230 µmol/rat, 24 h	–	urinary excretion as ring-cleaved metabolites	10%
C[C@H]1c2cccc(O)c2C(=O)C2=C(O)[C@]3(O)C(=O)C(C(N)=O)=C(O)[C@@H](N(C)C)[C@@H]3[C@@H](O)[C@@H]21	–	octanol-water	–	–	logP	-0.02
O=C1c2cccc3c2[C@H](CCC3)CN1[C@@H]1CN2CCC1CC2	–	cancer patients, plasma	oral, dose not given, netupitant-palonosetron fixed combination, together with: etoposide 35-100 mg/m^2 IV	–	AUC(0-inf)	49.3 ng·h/mL
CC[C@H](C)[C@H](NC(=O)[C@@H](CCCCN)NC(=O)[C@H](CCCCN)NC(=O)[C@H](Cc1ccccc1)NC(=O)[C@H](CC(C)C)NC(=O)[C@H](CCCCN)NC(=O)[C@@H](N)CCCCN)C(=O)N[C@@H](CC(C)C)C(=O)N[C@@H](CCCCN)C(=O)N[C@@H](Cc1ccc(O)cc1)C(=O)N[C@@H](CC(C)C)C(N)=O	–	horse erythrocytes 5 % v/v	150 µM	–	hemolysis	23 ± 2%
CC(=O)N[C@H](Cc1ccccc1)C(=O)N1CCC[C@H]1C(=O)N[C@@H](CCCN=C(N)N)B(O)O	–	dog	oral	–	oral bioavailability	53%
CO[C@H]1/C=C/O[C@@]2(C)Oc3c(C)c(O)c4c(O)c(c(/C=N/N5CCN(C)CC5)c(O)c4c3C2=O)NC(=O)/C(C)=C\C=C\[C@H](C)[C@H](O)[C@@H](C)[C@@H](O)[C@@H](C)[C@H](OC(C)=O)[C@@H]1C	–	–	–	–	logP	2.7
Cc1[nH]c2ccccc2c1CCNCc1ccc(/C=C/C(=O)NO)cc1	–	human	dose not given, high-fat meal	reference: fasted	decrease in Cmax	45%
COc1cc(CNC(=O)CCCC/C=C/C(C)C)ccc1O	–	plasma	concentration not given	–	Cmax	0.06 µM
CN(C)CCC[C@@]1(c2ccc(F)cc2)OCc2cc(C#N)ccc21	–	human	–	reference: patients over 65 years over younger	mean concentration ratio	1.8 fold
O=C(O)CNC(=O)c1ccccc1[131I]	–	normal rat, spleen	10 min, together with: co-injected 99mTc-1	–	percent injected dose	0.1 ± 0.1 %ID
C#Cc1cccc(Nc2ncnc3cc(OCCOC)c(OCCOC)cc23)c1	–	children	120 mg/m^2/day, mean of two days	–	volume of distribution	74.6 L/m²
Cn1cc(-c2ccc3nnc(Sc4ccc5ncccc5c4)n3n2)cn1	–	human patients phase I	dose not given, BUN and creatinine rise	–	dose causing renal toxicity	> 80 mg
Oc1cc(Cl)ccc1Oc1ccc(Cl)cc1Cl	–	juvenile Chinook salmon, whole body wet weight	concentration not given, field-collected	–	maximum whole-body concentration	26.4 ng/g
VVIA	filtration	peptide, sodium phosphate buffer	pH 7.4	–	solubility	140 ± 30 µM
COc1cccc2c1C(=O)c1c(O)c3c(c(O)c1C2=O)C[C@@](O)(C(=O)CO)C[C@@H]3O[C@H]1C[C@H](N)[C@H](O)[C@H](C)O1	–	tumour-bearing mice	0.5-8 h	reference: tumour over lung, heart or liver	tumour-to-organ uptake ratio	5 to 10%
CC[C@H](C)CCCCC(=O)N[C@@H](CCN)C(=O)N[C@H](C(=O)N[C@@H](CCN)C(=O)N[C@H]1CCNC(=O)[C@H]([C@@H](C)O)NC(=O)[C@H](CCN)NC(=O)[C@H](CCN)NC(=O)[C@H](CC(C)C)NC(=O)[C@@H](Cc2ccccc2)NC(=O)[C@H](CCN)NC1=O)[C@@H](C)O	population PK model	patients, normal renal function	intravenous	–	total clearance	2.19 L/h
C/C=C1\NC(=O)[C@H]2CSSCC/C=C/[C@H](CC(=O)N[C@H](C(C)C)C(=O)N2)OC(=O)[C@H](C(C)C)NC1=O	–	cutaneous T-cell lymphoma patients	14 mg/m^2, antiemetic prophylaxis	–	grade 3-4 nausea or vomiting incidence	< 5%
Nc1ccn([C@@H]2CS[C@H](CO)O2)c(=O)n1	–	plasma	concentration not given	–	Cmax	17 µM

Substance	assay	test system	conditions	scale	endpoint	result
CC(C)C[C@H](NC(=O)[C@H](Cc1ccccc1)NC(=O)c1cnccn1)B(O)O	–	relapsed or refractory multiple myeloma patients	dose not given, single agent, phase III	–	grade 3/4 thrombocytopenia incidence	15.4 to 29.3%
O=c1c2nc(Br)n([C@@H]3O[C@@H]4CO[P@@](O)(=S)O[C@H]4[C@H]3O)c2nc2[nH]c(-c3ccccc3)cn12 (single isomer, unassigned)	–	methanol/water	–	–	log Kw	~3
C#Cc1cccc(Nc2ncnc3cc(OCCOC)c(OCCOC)cc23)c1	refers to: parent compound	human patients, plasma	oral, 150 mg once daily, day 28	–	Cmin	1470 ± 877 ng/mL
CC/C(=C(\c1ccccc1)c1ccc(OCCN(C)C)cc1)c1ccccc1	–	plasma	concentration not given	–	Cmax	0.4 µM
COC(=O)N[C@H](C(=O)N[C@@H](Cc1ccccc1)[C@@H](O)CN(Cc1ccc(-c2ccccn2)cc1)NC(=O)[C@@H](NC(=O)OC)C(C)(C)C)C(C)(C)C	hyperbilirubinaemia risk	human, plasma	UGT1A1 inhibition	–	upper concentration limit	> 0.85 mg/L
COc1ccnc(C[S+]([O-])c2nc3ccc(OC(F)F)cc3[nH]2)c1OC (stereo not shown)	–	nonobese children, 6–11 years	oral	–	lag time	0.8 h
CC(C)(C)NC(=O)[C@@H]1C[C@@H]2CCCC[C@@H]2CN1C[C@@H](O)[C@H](Cc1ccccc1)NC(=O)[C@H](CC(N)=O)NC(=O)c1ccc2ccccc2n1	–	octanol/water	–	–	logP	4.1
Nc1ncnc2c1ncn2[C@@H]1O[C@@H]2COP(=O)(O)O[C@H]2[C@H]1O	–	methanol/water	–	–	log Kw	1.09
Clc1ccc(COC(Cn2ccnc2)c2ccc(Cl)cc2Cl)cc1 (stereo not shown)	–	plasma	concentration not given	–	Cmax	540 µM
Cc1nc2cccc(OCC(C)(C)C(=O)NC(C)C)c2c(N)c1C(=O)O.Cc1nc2cccc(OCC(C)(C)C(=O)NC(C)C)c2c(N)c1C(=O)O.O.O.O=S(=O)(O)O	–	rat, male, plasma	oral gavage, 30 mg/kg, molecular weight corrected	reference: parent drug	AUC(0-t)	136%
N#CC[C@H](C1CCCC1)n1cc(-c2ncnc3[nH]ccc23)cn1	–	rat	dose not given	reference: brain over plasma, higher = lower brain level	brain to plasma concentration ratio	29 fold
CS(=O)(=O)OCCCCOS(C)(=O)=O	–	plasma	concentration not given	–	Cmax	4.9 µM
CC[C@H](C)[C@H](NC(=O)[C@@H](NC(=O)[C@@H](NC(=O)CNC(=O)CNC(=O)[C@@H](NC(=O)[C@H](CCSC)NC(=O)[C@@H](N)CC(C)C)C(C)C)C(C)C)C(C)C)C(=O)N[C@@H](C)C(=O)O	filtration	sodium phosphate buffer	pH 7.4	–	solubility	132 ± 29 µM (≈ 113 µg/mL)
CCN1CCN(Cc2ccc(Nc3ncc(F)c(-c4cc(F)c5nc(C)n(C(C)C)c5c4)n3)nc2)CC1	–	cancer patients	–	–	elimination half-life	20 h and 22 h
C[C@@H]1CCO[C@H]2Cn3cc(C(=O)NCc4ccc(F)cc4F)c(=O)c(O)c3C(=O)N12	–	healthy Japanese subjects	50 mg, single dose, fasted	–	AUC(0-t)	46100 ng·h/mL
Cc1ccccc1-c1cc(N2CCN(C)CC2)ncc1N(C)C(=O)C(C)(C)c1cc(C(F)(F)F)cc(C(F)(F)F)c1	–	healthy volunteers, plasma	oral, dose not given, netupitant-palonosetron combination, together with: oral contraceptives	–	Tmax	4.36 h
CO[C@@]12[C@H](COC(N)=O)C3=C(C(=O)C(C)=C(N)C3=O)N1C[C@@H]1N[C@@H]12	–	plasma	concentration not given	–	Cmax	7.1 µM
Nc1ccn([C@@H]2CS[C@H](CO)O2)c(=O)n1	–	healthy, mostly White or Black	300 mg, single dose, fasted, together with: abacavir 600 mg, dolutegravir 50 mg	–	median Tmax	3 h
COC(=O)c1ccc2c(c1)NC(=O)/C2=C(\Nc1ccc(N(C)C(=O)CN2CCN(C)CC2)cc1)c1ccccc1	–	humans with mild hepatic impairment	concentration not given	reference: normal hepatic function	exposure	≤ 1.4 fold
CCN1C(=O)N(c2c(F)c(OC)cc(OC)c2F)Cc2cnc3[nH]c(CN4CCOCC4)cc3c21	–	patients with cancer	oral, 20 mg multiple doses, geometric mean	–	Cmax at steady state	0.421 µM
CC(=O)C[C@@H](c1ccccc1)c1c(O)c2ccccc2oc1=O	refers to: 7-hydroxy metabolite	human	10 mg, together with: simeprevir 150 mg	reference: with over without simeprevir	parent to metabolite ratio	0.98
NC(=O)N1c2ccccc2C=Cc2ccccc21	–	water	hydrate	–	aqueous solubility	-0.9 log mg/mL
CNCc1ccc(-c2cc(-c3nc(-c4ccc(S(=O)(=O)C(C)C)cc4)cnc3N)on2)cc1	HPLC-UV	rat, bile	intravenous infusion, 10 mg/kg	–	bile concentration	9 µg/mL
CN(CCOc1ccc(CC2SC(=O)NC2=O)cc1)c1ccccn1 (stereo not shown)	rapid equilibrium dialysis	hepatocyte culture medium	–	–	unbound fraction	0.14 to 0.18

For quick reference, copied from above:
Substance	assay	test system	conditions	scale	endpoint	result
CC(C)C[C@H](NC(=O)[C@H](Cc1ccccc1)NC(=O)c1cnccn1)B(O)O	–	relapsed or refractory multiple myeloma patients	dose not given, single agent, phase III	–	grade 3/4 thrombocytopenia incidence	15.4 to 29.3%
O=c1c2nc(Br)n([C@@H]3O[C@@H]4CO[P@@](O)(=S)O[C@H]4[C@H]3O)c2nc2[nH]c(-c3ccccc3)cn12 (single isomer, unassigned)	–	methanol/water	–	–	log Kw	~3
C#Cc1cccc(Nc2ncnc3cc(OCCOC)c(OCCOC)cc23)c1	refers to: parent compound	human patients, plasma	oral, 150 mg once daily, day 28	–	Cmin	1470 ± 877 ng/mL
CC/C(=C(\c1ccccc1)c1ccc(OCCN(C)C)cc1)c1ccccc1	–	plasma	concentration not given	–	Cmax	0.4 µM
COC(=O)N[C@H](C(=O)N[C@@H](Cc1ccccc1)[C@@H](O)CN(Cc1ccc(-c2ccccn2)cc1)NC(=O)[C@@H](NC(=O)OC)C(C)(C)C)C(C)(C)C	hyperbilirubinaemia risk	human, plasma	UGT1A1 inhibition	–	upper concentration limit	> 0.85 mg/L
